Published values pooled from the literature.
Every numbered part comes from another study and shows a few of its results, in no order.

Study 1
Target: Interferon regulatory factor 3, full length, phosphomimetic (IRF3, Homo sapiens, UniProt Q14653, residues 1-427, S386D/S396D/S398D/S402D/T404D/S405D)
Technique: protein-binding microarray
Form: double-stranded DNA, one strand shown
Sample: in vitro
Concentration: 2540 nM top
Notes: 60-bp whole probe
With: salmon DNA 0.4 mg/ml
Baseline: random background probes
Direction: higher = stronger binding
All sequences stand within: GCCTAGCAC … GTCTTGATTCGCTTGACGCTGCTG
Target sequence (chain): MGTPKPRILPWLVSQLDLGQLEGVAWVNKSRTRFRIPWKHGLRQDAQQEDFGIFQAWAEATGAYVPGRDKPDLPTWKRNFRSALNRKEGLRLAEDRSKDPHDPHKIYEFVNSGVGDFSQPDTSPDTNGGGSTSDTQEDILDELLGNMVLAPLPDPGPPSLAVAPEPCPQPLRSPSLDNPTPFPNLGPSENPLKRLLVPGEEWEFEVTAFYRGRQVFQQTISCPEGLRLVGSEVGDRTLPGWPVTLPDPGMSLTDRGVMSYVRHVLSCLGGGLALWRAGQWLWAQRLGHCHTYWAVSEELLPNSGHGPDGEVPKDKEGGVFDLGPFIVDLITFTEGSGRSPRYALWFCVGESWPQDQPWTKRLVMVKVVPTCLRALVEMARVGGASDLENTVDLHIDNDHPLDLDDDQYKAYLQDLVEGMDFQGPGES
Strand	fitted relative affinity [z-score]
TTAGATTCCAGTTTCGATAAGTGCTAG	4.82
TTAGGTATCGAATATCGGTTAGTGCTA	0.971
TCTCTTTTGGCTTTCCTTTAGTGCTAG	1.87
GACGGACTGGACACTGGGTACGTGCTA	-0.657
CCTGTAATCCCAGCTACTCAGTGCTAG	0.263

Study 2
Target: Histone acetyltransferase KAT6A, winged helix 1, GST fusion (KAT6A, Homo sapiens, UniProt Q92794, residues 1-85)
Technique: protein binding microarray
Form: double-stranded DNA, one strand shown
Sample: in vitro
Concentration: not given
Notes: 8-mer, flanks averaged, mean of 2 arrays, mostly near background
Baseline: not given
Direction: higher = stronger binding
Construct (chain): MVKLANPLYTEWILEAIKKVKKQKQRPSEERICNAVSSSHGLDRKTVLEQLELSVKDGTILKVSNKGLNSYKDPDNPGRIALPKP
Strand	E-score
GGTGGGGA	-0.185
AGCCGATC	0.119
AGATGCCA	-0.139
CTGCACAG	0.0122

Study 3
Target: Ras GTPase-activating protein-binding protein 1, C-terminal RGG region (G3BP1, Homo sapiens, UniProt Q13283)
Sequence of UniProt Q13283 (whole entry, looked up): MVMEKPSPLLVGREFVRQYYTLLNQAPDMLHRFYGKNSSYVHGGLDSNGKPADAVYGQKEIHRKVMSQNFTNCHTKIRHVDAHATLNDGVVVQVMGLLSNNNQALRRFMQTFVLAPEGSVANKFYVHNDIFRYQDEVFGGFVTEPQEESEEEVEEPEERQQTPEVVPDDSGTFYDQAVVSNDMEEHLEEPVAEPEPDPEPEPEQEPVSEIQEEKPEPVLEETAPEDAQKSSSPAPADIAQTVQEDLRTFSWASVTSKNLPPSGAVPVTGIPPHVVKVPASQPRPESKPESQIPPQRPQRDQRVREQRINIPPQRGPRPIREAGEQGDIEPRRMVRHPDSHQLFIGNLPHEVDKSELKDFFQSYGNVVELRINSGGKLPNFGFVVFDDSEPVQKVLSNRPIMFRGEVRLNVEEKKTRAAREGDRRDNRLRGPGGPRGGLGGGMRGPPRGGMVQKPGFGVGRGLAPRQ
Technique: RNA Bind-n-Seq
Form: RNA
Sample: in vitro
Concentration: 1 µM
Notes: whole 134-nt RNA, ends assumed
With: 150 mM KCl
Baseline: input library
Direction: higher = stronger binding
All sequences stand within: GGGAGUUCUACAGUCCGACGAUC … UGGAAUUCUCGGGUGUCAAGG
Strand	log2 enrichment
CUGUGCUACACAUCGUAUGUACCGAAUCGGAAAAAAAGGGGAAAAAAAGGGGAAAAAAAGGAAAGUAUUAUGUUACGCCGUUCGGAUCUG	-1.26
UGUGCGGGAGACAGGCGCCAACGGCACCUCUUUCAGUGUCCGCAAGACAGCCUACUGCGACAUCCACACGCCUCCAGGUUCAGCACGCCG	-0.117
AAGUCCUGUGCUACACAUCGUAUGUACCGAAUCGGGGAGGGGUGGGGAAAAAGGGGAAAGUAUUAUGUUACGCCGUUCGGAUCUGCACUU	1.71
CUGUGCUACACAUCGUAUGUACCGAAUCGGGGAAAAAAAGGGAAAAAAAGGGGAAAAAAAGGAAAGUAUUAUGUUACGCCGUUCGGAUCU	-1.23
CCUCAAGUCCUGUGCUACACAUCGUAUGUACCGAAUCGGAAGGGAAGGAAGGGAAAGUAUUAUGUUACGCCGUUCGGAUCUGCACUUCCA	-1.5
UGGCCCUGGUGGCAUGCGCGGAGGAAGAGGUGGCCUCAUGGAUCGUGGUGGUCCCGGUGGAAUGUUCAGAGGUGGCCGUGGUGGAGACAG	1.83

Single results of other studies
Molecule	target	assay	test system	conditions	how to read	endpoint	result
PhoQ, residues 284 288 289 292 302 303 TAVSDG	PhoP, residues 12 14 15 18 19 VQGLL (Escherichia coli, UniProt P23836)	Sort-seq, measured: YFP reporter	E. coli	PhoQ-PhoP variant library, with: 10 µM Mg2+	baseline: high Mg2+ state, higher = stronger signaling	fold induction	13.3
